Published values of several laboratories.
Cell line: CCRF-CEM

With `CCCN1CCN(c2ccc3[nH]c(-c4ccc5[nH]c(-c6ccc(OCC)c(OCC)c6)nc5c4)nc3c2)CC1` the growth percent was 5.88% (cell growth, NCI-60 SRB; 10 µM, 48 h).
`CSc1nc(-c2ccc(Cl)cc2)c2c(NC(=O)c3ccccc3)nnc-2[nH]1` gave a growth percent of 93.1% (NCI60 SRB; 10 µM).
`Cc1cc(=O)[nH]c(=O)n1Cc1cn(-c2cc3ccccc3oc2=O)nn1` has a growth of 102% (NCI60 single dose; 10 µM).
The growth percent of `NNc1nc(-c2ccc(Cl)cc2)c2c(NC(=O)c3ccccc3)nnc-2[nH]1` is reported as 92.9% (NCI60 SRB; 10 µM).
`CCCN1CCN(c2ccc3nc(-c4ccc5nc(-c6cc(OC)ccc6OC)[nH]c5c4)[nH]c3c2)CC1` gave a growth percent of 3.98% (cell growth, NCI-60 SRB; 10 µM, 48 h).
For `Cc1cc(C)n(C(=S)[S][Au][PH](CCCCCC[PH]([Au][S]C(=S)n2nc(C)cc2C)(c2ccccc2)c2ccccc2)(c2ccccc2)c2ccccc2)n1`, the log TGI was -5.72 log10 M (cell growth, NCI-60 screen; leukaemia).
For `CCCCN1CCN(c2ccc3[nH]c(-c4ccc5[nH]c(-c6ccc(C(F)(F)F)cc6)nc5c4)nc3c2)CC1`, the growth percent was -32.6% (cell growth, NCI-60 SRB; 10 µM, 48 h).
The growth percent of `CCOC(=O)CSc1nc(-c2ccc(Cl)cc2)c2c(NC(=O)c3ccccc3)nnc-2[nH]1` is reported as 98.5% (NCI60 SRB; 10 µM).
`CCCC(CCC)C(=O)OCc1cn(-c2c3ccccc3nc3ccccc23)nn1` has a growth of 76.7% (NCI60 single dose; 10 µM).
For `CCCCN1CCN(c2ccc3[nH]c(-c4ccc5[nH]c(-c6ccc(OCC)cc6)nc5c4)nc3c2)CC1`, the growth percent was 20.5% (cell growth, NCI-60 SRB; 10 µM, 48 h).
Under “early apoptotic cells”, `Cc1ccc(-c2cc3ccccc3c(N)n2)cc1` is recorded as 10.7% (annexin V-FITC/PI flow cytometry, item: annexin V+ PI-; 2.5 µM, 72 h).
The growth percent of `O=C(Nc1nnc2n3c(Cc4ccccc4)n[nH]c3nc(-c3ccc(Cl)cc3)c1-2)c1ccccc1` is reported as 96.1% (NCI60 SRB; 10 µM).
`CCCCN1CCN(c2ccc3[nH]c(-c4ccc5[nH]c(-c6cc(OC)c(OC)c(OC)c6)nc5c4)nc3c2)CC1` gave a growth percent of 25.1% (cell growth, NCI-60 SRB; 10 µM, 48 h).
The growth percent of `Cc1cc(C)n(-c2nc(-c3ccc(Cl)cc3)c3c(NC(=O)c4ccccc4)nnc-3[nH]2)n1` is reported as 97.8% (NCI60 SRB; 10 µM).
`Cn1cncc1C1=CN(c2ncnc3[nH]cnc23)CCS1` gave a GI50 of 26.9 µM (leukaemia cell line).
`O=c1ccn(Cc2cn(-c3c4ccccc4nc4ccccc34)nn2)c(=O)[nH]1` gave a growth of 83.9% (NCI60 single dose; 10 µM).
`CCN(CC)c1ccc(C=NNC(=O)CSc2nc3ccccc3c(=O)n2Cc2ccc(S(N)(=O)=O)cc2)c(O)c1` gave a TGI of > 100 µM (cell growth; NCI five-dose screen).
`O=C1NC(c2ccccc2)(c2ccccc2)C(=O)N1Cc1cn(-c2cc3ccccc3oc2=O)nn1` has a growth of 92.2% (NCI60 single dose; 10 µM).
Under “total apoptotic cells”, `Nc1nc(S)nc(O)c1N=Cc1cn(-c2ccccc2)nc1-c1ccc(Cl)cc1` is recorded as 38.5% (annexin V-FITC/PI flow cytometry; 1000 µM, 24 h).
For `CCOc1ccc(-c2nc3cc(-c4nc5cc(N6CCN(C)CC6)ccc5[nH]4)ccc3[nH]2)cc1OCC`, the growth percent was 11.3% (cell growth, NCI-60 SRB; 10 µM, 48 h).

Repeated from above:
For `Cc1cc(C)n(C(=S)[S][Au][PH](CCCCCC[PH]([Au][S]C(=S)n2nc(C)cc2C)(c2ccccc2)c2ccccc2)(c2ccccc2)c2ccccc2)n1`, the log TGI was -5.72 log10 M (cell growth, NCI-60 screen; leukaemia).
`CCCCN1CCN(c2ccc3[nH]c(-c4ccc5[nH]c(-c6cc(OC)c(OC)c(OC)c6)nc5c4)nc3c2)CC1` gave a growth percent of 25.1% (cell growth, NCI-60 SRB; 10 µM, 48 h).
For `CCCCN1CCN(c2ccc3[nH]c(-c4ccc5[nH]c(-c6ccc(C(F)(F)F)cc6)nc5c4)nc3c2)CC1`, the growth percent was -32.6% (cell growth, NCI-60 SRB; 10 µM, 48 h).
